# Measurements of several laboratories.
# Lines come from different studies, so protocols differ. ± gives the spread as reported.
# rep main protease: Replicase polyprotein 1ab, main protease (rep, Severe acute respiratory syndrome coronavirus 2, UniProt P0DTD1)
SMILES,tested on,test,system,conditions,quantity,value
CC(C)[C@H](NC(=O)OCc1ccccc1)C(=O)N[C@H](C=O)Cc1ccccc1,rep main protease,"reporter gene (mKate2), inhibitor",,20 µM,inhibition,0.835%
COc1cc2c(OCCCN3CCN(C)C(=O)C3)c3c(c(-c4ccc5c(c4)OCO5)c2cc1OC)C(=O)OC3,Zaire ebolavirus,viral replication,HeLa,,IC50,< 100 nM
CN(C)C1CCN(C(=O)c2cc3ccccc3n2Cc2ccc(F)cc2)CC1,Zaire ebolavirus,viral replication,"HeLa, Mayinga, wild type",,EC50,> 20000 nM
CCC(CC)COC(=O)[C@H](C)N[P@](=O)(OC[C@H]1O[C@@](C#N)(c2ccc3c(N)ncnn23)[C@H](O)[C@@H]1O)Oc1ccccc1,Zaire ebolavirus,viral replication,Huh7 minigenome cells,48 h,EC50,970 nM
Cn1cnc(Cn2c(=O)[nH]/c(=N\c3cc4cn(C)nc4cc3Cl)n(Cc3cc(F)c(F)cc3F)c2=O)n1,,,"human, normal renal function","oral, 375 mg","any TEAE, Mild severity",0%
O=C(N1CCC2(CC1)C[C@@H](CN1CCCCS1(=O)=O)CCO2)C1(c2ccccc2)CCCC1,Zaire ebolavirus,viral replication,Vero,,EC50,> 30000 nM
CNc1nc(N)ncc1-c1cn([C@@H]2O[C@H](CO)[C@@H](O)[C@@]2(C)F)cn1,Zaire ebolavirus,,,concentration not given,antiviral activity,inactive
Nc1ncnc2c([C@@H]3N[C@H](CO)[C@@H](O)[C@H]3O)c[nH]c12,Zaire ebolavirus,viral replication,"HeLa, Kikwit",12.5 µM,inhibition,46.8%
NC(=O)c1nc(F)c[nH]c1=O,Zaire ebolavirus,viral replication,HeLa,24 h,EC50,> 25000 nM
CCOC(=O)[C@H](Cc1ccccc1)NC(=O)c1cc(Cl)c(OCCN2CCN(C)CC2)c(Cl)c1O.Cl.Cl,rep main protease,"viral replication, mKate2 reporter",SARS-CoV-2,20 µM,inhibition,-0.61%
CN1CCN(C(c2ccccc2)c2ccc(Cl)cc2)CC1 (stereo not shown),Zaire ebolavirus,viral entry,A549,12.5 µM,inhibition,≥ 75%
CC[C@H](C)[C@H](NC(=O)[C@H](CC(C)C)NC(=O)[C@H](Cc1c[nH]c2ccccc12)NC(=O)[C@H](CCC(N)=O)NC(=O)[C@@H](NC(=O)[C@H](Cc1ccccc1)NC(=O)[C@H](C)NC(=O)[C@H](CCCCNC(=O)COCCOCCNC(=O)COCCOCCNC(=O)CC[C@H](NC(=O)CCCCCCCCCCCCCCCCCCC(=O)O)C(=O)O)NC(=O)[C@H](CCC(N)=O)NC(=O)[C@H](C)NC(=O)[C@@H](NC(=O)[C@H](CCCCN)NC(=O)[C@H](CC(=O)O)NC(=O)[C@H](CC(C)C)NC(=O)C(C)(C)NC(=O)[C@@H](NC(=O)[C@H](CO)NC(=O)[C@H](Cc1ccc(O)cc1)NC(=O)[C@H](CC(=O)O)NC(=O)[C@H](CO)NC(=O)[C@@H](NC(=O)[C@H](Cc1ccccc1)NC(=O)[C@@H](NC(=O)CNC(=O)[C@H](CCC(=O)O)NC(=O)C(C)(C)NC(=O)[C@@H](N)Cc1ccc(O)cc1)[C@@H](C)O)[C@@H](C)O)[C@@H](C)CC)[C@@H](C)CC)C(C)C)C(=O)N[C@@H](C)C(=O)NCC(=O)NCC(=O)N1CCC[C@H]1C(=O)N[C@@H](CO)C(=O)N[C@@H](CO)C(=O)NCC(=O)N[C@@H](C)C(=O)N1CCC[C@H]1C(=O)N1CCC[C@H]1C(=O)N1CCC[C@H]1C(=O)N[C@@H](CO)C(N)=O,,,"healthy subjects, single ascending dose","5.0 mg, day 29",serum amylase,71.3 ± 8.5 U/L
CNC(=O)[C@@H](NC(=O)[C@H](CC(C)C)[C@H](O)C(=O)NO)C(C)(C)C,,,"TN population, mouse","intravenous, 120 µg/mouse, 24 h, preincubated with venom, added: Daboia russelii venom 2.5 x LD50",survival,100%
CN(C)CCNC(=O)c1cc2occc2n1C,Zaire ebolavirus,pseudovirus entry,A549,,EC50,> 100000 nM
CCN(CC)CCCC(C)Nc1c2ccc(Cl)cc2nc2ccc(OC)cc12 (stereo not shown),Zaire ebolavirus,viral replication,HeLa,24 h,EC50,980 nM
COc1cc2c(OC3CCNCC3)c3c(c(-c4ccc5c(c4)OCO5)c2cc1OC)C(=O)OC3,Zaire ebolavirus,viral replication,HeLa,,EC90,51 nM
